Measured values gathered from unrelated publications.
Each line is one published result; not all experiments were run side by side. Positions count from the first letter of the parent shown. ± marks the error that the study gave.
DNA dC->dU-editing enzyme APOBEC-3A: DNA dC->dU-editing enzyme APOBEC-3A (Homo sapiens, UniProt P31941)
SCTR: Secretin receptor (SCTR, Homo sapiens, UniProt P47872)
POLB I260M: DNA polymerase beta (POLB, Homo sapiens, UniProt P06746, I260M)
POLB: DNA polymerase beta (POLB, Homo sapiens, UniProt P06746)
T1: ssRNA FMR1 5' UTR CGG repeat (Homo sapiens); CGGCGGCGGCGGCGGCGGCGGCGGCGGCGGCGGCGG
P1: ZFP36L1 (Homo sapiens); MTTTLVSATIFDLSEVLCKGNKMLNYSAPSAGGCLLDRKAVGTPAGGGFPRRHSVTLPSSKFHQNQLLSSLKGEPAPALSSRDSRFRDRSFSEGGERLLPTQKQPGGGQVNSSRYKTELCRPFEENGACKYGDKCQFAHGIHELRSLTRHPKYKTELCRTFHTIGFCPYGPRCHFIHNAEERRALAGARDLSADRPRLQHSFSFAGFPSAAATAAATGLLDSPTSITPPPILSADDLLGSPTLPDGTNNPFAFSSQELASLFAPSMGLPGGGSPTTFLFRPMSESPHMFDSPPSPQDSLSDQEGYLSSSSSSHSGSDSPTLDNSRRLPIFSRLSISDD
P2: Fgfr1 (Mus musculus); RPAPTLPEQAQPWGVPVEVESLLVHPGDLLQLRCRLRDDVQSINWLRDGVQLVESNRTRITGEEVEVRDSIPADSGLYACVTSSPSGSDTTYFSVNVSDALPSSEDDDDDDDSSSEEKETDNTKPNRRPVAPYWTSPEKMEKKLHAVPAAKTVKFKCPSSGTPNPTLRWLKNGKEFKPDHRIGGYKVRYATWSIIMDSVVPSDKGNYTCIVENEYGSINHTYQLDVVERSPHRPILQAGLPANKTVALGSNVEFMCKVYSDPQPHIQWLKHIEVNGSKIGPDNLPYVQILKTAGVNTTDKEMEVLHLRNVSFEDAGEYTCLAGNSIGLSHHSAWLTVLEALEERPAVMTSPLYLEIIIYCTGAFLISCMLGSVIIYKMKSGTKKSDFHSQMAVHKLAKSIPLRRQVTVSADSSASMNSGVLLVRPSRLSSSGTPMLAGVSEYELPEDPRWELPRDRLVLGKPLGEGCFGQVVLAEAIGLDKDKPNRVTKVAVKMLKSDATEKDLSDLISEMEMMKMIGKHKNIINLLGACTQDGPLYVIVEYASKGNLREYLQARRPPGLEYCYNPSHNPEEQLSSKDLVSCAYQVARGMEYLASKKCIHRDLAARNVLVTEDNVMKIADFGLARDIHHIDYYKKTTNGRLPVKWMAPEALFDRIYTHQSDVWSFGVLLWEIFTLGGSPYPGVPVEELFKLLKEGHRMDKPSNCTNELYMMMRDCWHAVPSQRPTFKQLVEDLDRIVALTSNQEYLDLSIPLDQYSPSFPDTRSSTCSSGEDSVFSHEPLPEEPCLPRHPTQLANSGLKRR

Molecule | target or system | test | system | conditions | how to read | endpoint | value
GATCTCTGCGTGCGCGTCTATAGCCTACTG (dsDNA) | GZF1 1-711 (Homo sapiens, UniProt Q9H116) | EMSA | double-stranded DNA, one strand shown | – | – | binding | no binding
CN(CC(=O)c1ccc2[nH]c(=O)[nH]c2c1)Cc1ccco1 | DNA dC->dU-editing enzyme APOBEC-3A | deaminase activity, inhibitor, alkaline cleavage | purified, expressed in 293T | 700 µM | – | remaining activity | 5%
N#Cc1cc(C(=O)OCC[18F])c(C(F)(F)F)nc1N1CCN(C(=O)Cc2ccccc2)CC1 | P2Y purinoceptor 12 (P2ry12, Mus musculus, UniProt Q9CPV9) | PET | mouse, IL-4-induced lesion, brain lesion | with: clopidogrel 1.0 mg/kg | baseline: unblocked | decrease of PET signal | ~1.45 fold
CN1CCc2cc(O)c(O)cc2C(c2ccccc2)C1 (stereo not shown) | Carbamate kinase (Giardia intestinalis, UniProt A8BB85) | enzyme activity, inhibitor, luminescence, ATP detection | Giardia lamblia | – | – | maximal inhibition | 85.4%
COc1ccc(-c2cc(C(F)(F)F)nc(NCc3ccc(Cl)cc3)n2)cc1OC | SCTR | cAMP, agonist | – | – | – | Emax | 23%
Nc1nc2c(ncn2[C@H]2C[C@H](O)[C@@H](COP(=O)(O)OP(=O)(O)CP(=O)(O)O)O2)c(=O)[nH]1 | POLB I260M | nucleotide incorporation rate, substrate, single-turnover kinetics | single-nucleotide gapped DNA | 37 °C, I260M, misincorporation, with: dGTP opposite template A | – | kpol | 0.0016 ± 0.0002 s⁻¹
TGFB1I1/GFP Y38F/Y60F | TNS1 (Mus musculus) | proximity ligation assay | – | read off a plot | higher = more proximity | PLA spots | 15 spots/cell
CN1CCN(CC(=O)N2N=C3/C(=C/c4ccccc4)CCCC3C2c2ccccc2)CC1 (mixture of isomers) | Polyunsaturated fatty acid lipoxygenase ALOX12 (ALOX12, Homo sapiens, UniProt P18054) | activator | – | 20 µM, with: arachidonic acid | baseline: activator 0 µM | enzyme activity | 83.3%
O=c1cnnc(Nc2ccc(O)cc2)[nH]1 | DNA dC->dU-editing enzyme APOBEC-3A | binding, 1H CPMG NMR | – | – | – | signal attenuation | 43.9 ± 0.1%
Nc1nc2c(ncn2[C@H]2C[C@H](O)[C@@H](COP(=O)(O)OP(=O)(O)[C@H](Cl)P(=O)(O)O)O2)c(=O)[nH]1 | POLB | substrate, quench-flow kinetics | – | pH 8.0, 37 °C, misincorporation opposite T in gapped DNA | – | kpol | 0.26 ± 0.01 s⁻¹
Cc1cn(C2CC(O)C(COP(=O)(O)OP(=O)(O)C(F)P(=O)(O)O)O2)c(=O)[nH]c1=O (mixture of isomers) | POLB | nucleotide incorporation rate, substrate, single-turnover kinetics | single-nucleotide gapped DNA | 37 °C, wild type, correct incorporation, with: dTTP opposite template A | – | kpol | 18.3 ± 1.1 s⁻¹
DREIEILTKEINKLELKISD | Exportin-1 (XPO1, Homo sapiens, UniProt O14980, E571K) | fluorescence polarization | peptide | – | baseline: E571K mutant over wild type | Kd ratio | 1.1
AACGUACUUUAAGGCCUAUUGAGGAAACUC (ssDNA; all dC Pp-dC; all dU Nap-dU) | Pcsk9 31-691 (Rattus norvegicus, UniProt P59996) | filter binding | – | – | – | Kd | 0.165 nM
CCCCCCc1ccc(Oc2ccccc2N)c(O)c1 | Enoyl-[acyl-carrier-protein] reductase [NADPH] FabI (Staphylococcus aureus, UniProt Q6GI75) | enzyme activity, inhibitor, progress curve kinetics, refers to: NADPH | – | – | – | Ki | 0.12 nM
Nc1nc2c(ncn2C2CC(O)C(COP(=O)(O)OP(=O)(O)C(F)P(=O)(O)O)O2)c(=O)[nH]1 (mixture of isomers) | POLB | nucleotide incorporation, substrate, single turnover kinetics | – | dG misincorporation opposite A | – | kpol/Kd | 7.6 ± 3.1 M⁻¹ s⁻¹
O=C1CC(c2ccccc2)N1S(=O)(=O)c1ccc(Br)cc1 (stereo not shown) | Rhomboid protease AarA (Providencia stuartii, UniProt P46116) | enzyme activity, inhibitor | – | 100 µM | – | remaining activity | 71 to 86%
Nc1nc2c(ncn2[C@H]2C[C@H](O)[C@@H](COP(=O)(O)OP(=O)(O)C(Br)(Br)P(=O)(O)O)O2)c(=O)[nH]1 | POLB I260M | nucleotide incorporation rate, substrate, single-turnover kinetics | single-nucleotide gapped DNA | 37 °C, I260M, misincorporation, with: dGTP opposite template A | – | kpol | 0.0009 ± 0.0001 s⁻¹

Molecule | target or system | test | system | conditions | how to read | endpoint | value
P1 S334D | DCP1A (Homo sapiens) | co-IP | HEK293T, lysate | read off a plot | baseline: unchanged protein, higher = more binding | relative binding | 190%
DC2 K142A (Homo sapiens) | STT3A/OST STT3A complex (Homo sapiens) | BN-PAGE immunoblot | – | – | baseline: unchanged protein, higher = more complex | relative binding | 35%
C[C@]12CC[C@@H]3c4cc(Br)c(O)cc4CC[C@H]3[C@@H]1CCC2=O | Aldo-keto reductase family 1 member C3 (AKR1C3, Homo sapiens, UniProt P42330) | enzyme activity, inhibitor, absorbance | – | 100 µM, pH 9 | – | inhibition | 40.2%
CC(c1ncccn1)N1CCCC(c2ccc(O)cc2)C1 (stereo not shown) | 5-hydroxytryptamine receptor 2A (HTR2A, Homo sapiens, UniProt P28223) | β-arrestin recruitment, agonist | – | – | – | Emax | 69.3%
C=C1[C@H](O)CC(=C/C=C2\CCC[C@]3(C)[C@@H]([C@H](C)CCCC)CC[C@@H]23)C[C@H]1O | Vitamin D3 receptor (Rattus norvegicus, UniProt P13053) | binding, radioligand competition | – | – | baseline: compound over 1α,25-dihydroxyvitamin D3 | Ki ratio | 3
COc1cccc(-c2cc(C(F)(F)F)nc(NCc3ccccc3)n2)c1 | SCTR | increase of tracer binding, TR-FRET | HEK293 membranes | with: Fluo-Sec 6 nM | – | Emax | 152 ± 20%
Cc1ccc(N2CCN(C(=O)c3noc(-c4ccc(F)cc4)n3)CC2)cc1 | Potassium voltage-gated channel subfamily KQT member 2 (KCNQ2, Homo sapiens, UniProt O43526) | potassium current, activator, whole-cell patch clamp | CHO, stable | 20 µM | baseline: current before compound | current fold increase | 1.03 ± 0.07
Cc1ccc(NC(=O)CNS(=O)(=O)c2nc(-c3ccc(OC(F)(F)F)cc3)cc(C(F)(F)F)n2)cc1 | Bifunctional 3'-5' exonuclease/ATP-dependent helicase WRN (WRN, Homo sapiens, UniProt Q14191) | enzyme activity, inhibitor | – | – | – | kinact | 0.00045 s⁻¹
P2 L402A V408A Y442F Y709F Y745F Y755F | PIK3R2 (Mus musculus) | proximity ligation assay | embryo sections | read off a plot | higher = more proximity | signal | 90 puncta
CN1CCN(c2ccc3[nH]c(-c4ccc5[nH]c(-c6cccc(OCCCC(=O)NCCCN=[N+]=[N-])c6)nc5c4)nc3c2)CC1 | T1, ssRNA FMR1 5' UTR CGG repeat (Homo sapiens) | protein displacement, competitor, TR-FRET | – | – | – | IC50 | 33000 nM
[11CH3]Nc1ccc(-c2nc3ccc(O)cc3o2)cn1 | Amyloid-beta precursor protein (APP, Homo sapiens, UniProt P05067) | binding, PET, reference Logan | control subjects, hippocampus | – | baseline: cerebellum | distribution volume ratio | 1.04 ± 0.04
[123I]c1ccc2nc(-c3ccc(-n4ccnn4)nc3)cn2c1 | Amyloid-beta precursor protein, amyloid-beta (APP, Homo sapiens, UniProt P05067) | SPECT | Alzheimer's disease patients, Occipital cortex | 150 to 240 min | baseline: cerebellum | SUVR | 1.01 ± 0.11
CCCCCCCC/C=C\CCCCCCCC(=O)OC[C@@H]1OCC=C[C@@H]1OP(=O)(O)S (stereo partly shown) | Lysophosphatidic acid receptor 2 (LPAR2, Homo sapiens, UniProt Q9HBW0) | agonist, TGFα shedding | – | – | – | Emax | 30%
CNc1ccccc1C(=O)O[C@H]1C[C@H](n2cnc3c(N)ncnc32)O[C@@H]1COP(=O)(O)OP(=O)(O)O | Unconventional myosin-Va (Gallus gallus, UniProt Q02440, D297C/G292C/I296C/S293C/V295G) | stopped-flow FRET | – | 4 °C, with: MgCl2 10 mM | – | association rate constant | 1.21e+06 ± 70000 M⁻¹ s⁻¹
COc1cccc(-c2cc(C(F)(F)F)nc(NCc3ccc(F)cc3)n2)c1 | SCTR | cAMP, agonist | – | – | – | Emax | 9.9%
O=C(c1cc2c(s1)CCCCC2)N1CCC(n2c(=O)[nH]c3ccccc32)CC1 | Short transient receptor potential channel 6 (Trpc6, Mus musculus, UniProt Q61143, E671C) | ion current, agonist, whole-cell patch clamp | – | 100 µM, E671C mutant | – | maximal current density | 27.4 ± 4.69 pA/pF
O=C(N[C@@H](Cc1ccc(OCCCCC2CCNCC2)cc1)C(=O)O)c1nc2ccccc2o1.O=C(O)C(F)(F)F | Integrin alpha-IIb/beta-3 (Homo sapiens, UniProt P05106+P08514) | ODE model | human, diluted whole blood | 50% occupancy, dilution 1:1 | – | concentration for occupancy | 688 nM

For quick reference, copied from above:
Molecule | target or system | test | system | conditions | how to read | endpoint | value
COc1cccc(-c2cc(C(F)(F)F)nc(NCc3ccc(F)cc3)n2)c1 | SCTR | cAMP, agonist | – | – | – | Emax | 9.9%
CCCCCCCC/C=C\CCCCCCCC(=O)OC[C@@H]1OCC=C[C@@H]1OP(=O)(O)S (stereo partly shown) | Lysophosphatidic acid receptor 2 (LPAR2, Homo sapiens, UniProt Q9HBW0) | agonist, TGFα shedding | – | – | – | Emax | 30%
O=c1cnnc(Nc2ccc(O)cc2)[nH]1 | DNA dC->dU-editing enzyme APOBEC-3A | binding, 1H CPMG NMR | – | – | – | signal attenuation | 43.9 ± 0.1%
N#Cc1cc(C(=O)OCC[18F])c(C(F)(F)F)nc1N1CCN(C(=O)Cc2ccccc2)CC1 | P2Y purinoceptor 12 (P2ry12, Mus musculus, UniProt Q9CPV9) | PET | mouse, IL-4-induced lesion, brain lesion | with: clopidogrel 1.0 mg/kg | baseline: unblocked | decrease of PET signal | ~1.45 fold
Cc1ccc(NC(=O)CNS(=O)(=O)c2nc(-c3ccc(OC(F)(F)F)cc3)cc(C(F)(F)F)n2)cc1 | Bifunctional 3'-5' exonuclease/ATP-dependent helicase WRN (WRN, Homo sapiens, UniProt Q14191) | enzyme activity, inhibitor | – | – | – | kinact | 0.00045 s⁻¹
C=C1[C@H](O)CC(=C/C=C2\CCC[C@]3(C)[C@@H]([C@H](C)CCCC)CC[C@@H]23)C[C@H]1O | Vitamin D3 receptor (Rattus norvegicus, UniProt P13053) | binding, radioligand competition | – | – | baseline: compound over 1α,25-dihydroxyvitamin D3 | Ki ratio | 3
